Measurements pooled from the literature.
“And” joins repeats or separate records; there may be more than shown. ± marks the error that the study gave.
Chain of UniProt Q9H2X6 (whole entry, looked up): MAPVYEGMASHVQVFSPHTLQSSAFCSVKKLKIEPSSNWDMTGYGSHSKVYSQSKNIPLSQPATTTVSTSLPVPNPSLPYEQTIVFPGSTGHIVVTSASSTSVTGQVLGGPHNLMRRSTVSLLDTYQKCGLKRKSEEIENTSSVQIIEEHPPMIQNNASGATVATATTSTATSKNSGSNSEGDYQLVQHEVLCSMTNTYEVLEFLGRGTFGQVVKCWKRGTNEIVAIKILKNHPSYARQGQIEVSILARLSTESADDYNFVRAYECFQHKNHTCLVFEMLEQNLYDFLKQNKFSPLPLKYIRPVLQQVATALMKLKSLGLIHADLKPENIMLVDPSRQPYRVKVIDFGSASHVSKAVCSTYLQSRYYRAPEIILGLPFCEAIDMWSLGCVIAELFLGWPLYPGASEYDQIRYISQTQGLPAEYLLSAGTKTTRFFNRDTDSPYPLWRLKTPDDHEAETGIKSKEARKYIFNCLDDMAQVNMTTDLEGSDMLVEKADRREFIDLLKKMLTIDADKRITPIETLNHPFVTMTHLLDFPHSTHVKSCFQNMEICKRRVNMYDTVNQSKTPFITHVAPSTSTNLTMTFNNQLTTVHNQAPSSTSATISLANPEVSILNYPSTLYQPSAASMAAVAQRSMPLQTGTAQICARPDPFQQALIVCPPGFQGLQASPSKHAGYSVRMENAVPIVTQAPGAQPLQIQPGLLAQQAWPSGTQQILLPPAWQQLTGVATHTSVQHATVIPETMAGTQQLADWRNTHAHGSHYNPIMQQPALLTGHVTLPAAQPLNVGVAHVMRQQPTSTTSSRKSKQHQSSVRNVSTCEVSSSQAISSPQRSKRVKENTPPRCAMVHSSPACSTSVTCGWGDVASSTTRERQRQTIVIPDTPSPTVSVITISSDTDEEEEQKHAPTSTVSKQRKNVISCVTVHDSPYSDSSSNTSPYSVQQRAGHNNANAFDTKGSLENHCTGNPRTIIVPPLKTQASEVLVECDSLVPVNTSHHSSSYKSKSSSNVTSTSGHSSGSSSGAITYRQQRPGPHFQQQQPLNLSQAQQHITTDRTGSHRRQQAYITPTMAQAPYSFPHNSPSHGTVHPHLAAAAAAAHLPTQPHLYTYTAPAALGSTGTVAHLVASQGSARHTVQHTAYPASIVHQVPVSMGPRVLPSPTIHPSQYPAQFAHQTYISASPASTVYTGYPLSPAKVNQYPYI
Chain of UniProt Q8TDX7 (whole entry, looked up): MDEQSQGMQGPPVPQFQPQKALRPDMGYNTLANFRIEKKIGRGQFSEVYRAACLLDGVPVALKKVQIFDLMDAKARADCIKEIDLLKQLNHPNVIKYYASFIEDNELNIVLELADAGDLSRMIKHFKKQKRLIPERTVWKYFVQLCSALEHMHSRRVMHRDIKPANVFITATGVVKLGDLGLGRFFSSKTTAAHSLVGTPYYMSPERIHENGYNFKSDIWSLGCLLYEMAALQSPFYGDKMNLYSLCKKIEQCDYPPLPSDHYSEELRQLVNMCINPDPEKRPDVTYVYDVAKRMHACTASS

Cc1nc2cccc(OCC(C)(C)C(=O)NC(C)C)c2c(N)c1C(=O)[O-].[Na+]  revertant colonies per plate (Salmonella typhimurium; TA100; 0.80 mg per plate, without S9, preincubation): 131 ± 21
O=C(c1cc(Cc2n[nH]c(=O)c3ccccc23)ccc1F)N1CC(CNC2CC2)C1  haemoglobin (Wistar Han rat, female, blood; oral, 60 mg/kg daily, 4 weeks): 9.9 ± 0.8 g/dL
C[C@H](O)[C@@H](NC(=O)[C@H]1CCCN1C(=O)[C@@H](CCCCN)NC(=O)[C@@H](CO)NC(=O)[C@@H](Cc1ccc(O)cc1)NC(=O)[C@@H](CC(N)=O)NC(=O)CCOCCOCCOCCNC(=O)CN1CCN(CC(=O)O)CCN(CC(=O)O)CCN(CC(=O)O)CC1)C(=O)N[C@H](CC(=O)O)C(=O)N[C@H](CCCNC(=N)N)C(=O)N[C@H](CCC(N)=O)C(=O)N[C@H](Cc1ccc(O)cc1)C(=O)N[C@H](Cc1c[nH]cn1)C(=O)N[C@H](Cc1ccccc1)C(N)=O [copper-64 labelled]  tissue uptake (C57BL/6J mice, kidney; intravenous, 1.85 MBq, 1.333 h, radiolabelled): 28.5 ± 3.22 %ID/g
CC(=O)N[C@H](C(=O)N[C@@H](CCCC(=O)OC(C)(C)C)C(=O)N[C@@H](CCC1CCCCC1)C(=O)N[C@@H](CC(=O)O)C(=O)COC(=O)c1c(C)cccc1C)C(C)(C)C  blood concentration (C57BL/6N mouse, female, whole blood; intraperitoneal, dose not given, 0.08 h): 208 µM and 215 µM
CC(C)[C@@H]1NC(=O)CNC(=O)[C@H](CC(N)=O)NC(=O)[C@H](CCCNC(=N)N)NC(=O)[C@H](Cc2ccc(O)cc2)NC(=O)[C@H](C(C)C)NC(=O)[C@@H](NC(=O)[C@@H](NC(=O)[C@H](CC(N)=O)NC(=O)[C@H](Cc2c[nH]c3ccccc23)NC(=O)[C@H](C)NC(=O)[C@H](Cc2ccccc2)NC(=O)CNC(=O)[C@H](CCCCN)NC(=O)[C@H](Cc2ccccc2)NC(=O)[C@H](Cc2ccccc2)NC(=O)[C@H](CCCCN)NC(=O)OCC2c3ccccc3-c3ccccc32)C(C)C)CSSC[C@@H](C(=O)N[C@@H](Cc2c[nH]cn2)C(=O)N[C@@H](CCCNC(=N)N)C(=O)N[C@@H](CCCNC(=N)N)C(=O)N[C@@H](C)C(=O)N[C@@H](CC(N)=O)C(N)=O)NC(=O)[C@H](C(C)C)NC(=O)[C@H](CCCNC(=N)N)NC1=O  MCH (ICR mouse, blood; intramammary, 5 mg/kg, day 5, 3 d dosing): 13.1 ± 0.17 pg
CCCCCCCCCCCCCCCC(=O)N[C@@H](CCC(=O)NCCOCCOCCC(=O)NCCOCCOCCC(=O)NCCCC[C@H](NC(=O)[C@H](CC(=O)O)NC(=O)[C@H](CC(C)C)NC(=O)[C@H](Cc1ccc(O)cc1)NC(=O)[C@H](CCCCN)NC(=O)[C@H](CO)NC(=O)[C@H](Cc1ccc(O)cc1)NC(=O)[C@H](CC(=O)O)NC(=O)[C@H](CO)NC(=O)[C@@H](NC(=O)[C@H](Cc1ccccc1)NC(=O)[C@@H](NC(=O)CNC(=O)[C@H](CCC(N)=O)NC(=O)[C@@H](CO)NC(=O)[C@@H](N)Cc1c[nH]cn1)[C@@H](C)O)[C@@H](C)O)C(=O)N[C@@H](CCCNC(=N)N)C(=O)N[C@@H](CCCNC(=N)N)C(=O)N[C@@H](C)C(=O)N[C@@H](CCC(N)=O)C(=O)N[C@@H](CC(=O)O)C(=O)N[C@@H](Cc1ccccc1)C(=O)N[C@H](C(=O)N[C@@H](CCC(N)=O)C(=O)N[C@@H](Cc1c[nH]c2ccccc12)C(=O)N[C@@H](CC(C)C)C(=O)N[C@@H](CC(C)C)C(=O)N[C@@H](CC(N)=O)C(=O)N[C@H](C(=O)NCC(=O)NCC(=O)N1CCC[C@H]1C(=O)N[C@@H](CO)C(=O)N[C@@H](CO)C(=O)NCC(=O)N[C@@H](C)C(=O)N1CCC[C@H]1C(=O)N1CCC[C@H]1C(=O)N1CCC[C@H]1C(=O)N[C@@H](CO)C(N)=O)[C@@H](C)O)C(C)C)C(=O)O  total cholesterol (rhesus monkey, female; subcutaneous, 20 µg/kg once daily, 28 days): 3.02 ± 0.45 mmol/L
C/C(=N\OCCCN1CCCCC1)c1ccc(C(F)(F)F)cc1  QRS interval (rhesus monkey; dose not given, after dosing): 40 ms
CC[C@H](C)[C@H](NC(=O)[C@H](CCCCN)NC(=O)CNC(=O)[C@H](CC(C)C)NC(=O)[C@H](Cc1ccccc1)NC(=O)[C@H](CCCCN)NC(=O)[C@H](CO)NC(=O)[C@H](Cc1ccccc1)NC(=O)[C@H](Cc1c[nH]c2ccccc12)NC(=O)[C@H](CCC(N)=O)NC(=O)[C@@H](NC(=O)[C@H](Cc1ccccc1)NC(=O)CCCCCNC(=O)CN1CCN(CC(=O)O)CCN(CC(=O)O)CCN(CC(=O)O)CC1)C(C)C)C(=O)N[C@@H](CCC(=O)O)C(=O)N1CCC[C@H]1C(=O)N[C@@H](CC(=O)O)C(=O)N[C@H](C(=O)N[C@@H](CO)C(=O)N[C@@H](CCC(N)=O)C(=O)N[C@H](C(=O)N[C@@H](CCC(N)=O)C(=O)N[C@@H](CC(=O)O)C(=O)N1CCC[C@H]1C(=O)N[C@@H](CC(N)=O)C(=O)N[C@@H](CC(=O)O)C(=O)N[C@@H](CCC(N)=O)C(=O)N[C@@H](Cc1ccc(O)cc1)C(=O)N[C@@H](CCC(=O)O)C(=O)N1CCC[C@H]1C(=O)N[C@@H](Cc1ccccc1)C(=O)O)C(C)C)C(C)C [copper-64 labelled]  SUVmean (dynamic PET; mouse both sexes, CT26 tumour, untreated, tumour; intravenous, 100 µCi/mouse, 270 s): 0.81 SUV
CSCC[C@H](N)C(=O)N[C@@H](C)C(=O)N[C@@H](CCCNC(=N)N)C(=O)N[C@@H](CCCNC(=N)N)C(=O)N[C@@H](CC(=O)O)C(=O)N[C@@H](CCCCN)C(=O)N[C@H](C(=O)N[C@@H](CC(=O)O)C(=O)N[C@@H](Cc1ccccc1)C(=O)N[C@@H](C)C(=O)N[C@@H](CCCNC(=N)N)C(=O)N[C@@H](CCCNC(=N)N)C(=O)N[C@@H](CCCNC(=N)N)C(=O)N[C@@H](CCCNC(=N)N)C(=O)NCCCCCC(=O)NCCCCC(NC(=O)CCCCCNC(=O)[C@H](CCCNC(=N)N)NC(=O)[C@H](CCCNC(=N)N)NC(=O)[C@H](CCCNC(=N)N)NC(=O)[C@H](CCCNC(=N)N)NC(=O)[C@H](C)NC(=O)[C@H](Cc1ccccc1)NC(=O)[C@H](CC(=O)O)NC(=O)[C@@H](NC(=O)[C@H](CCCCN)NC(=O)[C@H](CC(=O)O)NC(=O)[C@H](CCCNC(=N)N)NC(=O)[C@H](CCCNC(=N)N)NC(=O)[C@H](C)NC(=O)[C@@H](N)CCSC)[C@@H](C)O)C(=O)NCCCCC(NC(=O)C(CCCCNC(=O)CCCCCNC(=O)[C@H](CCCNC(=N)N)NC(=O)[C@H](CCCNC(=N)N)NC(=O)[C@H](CCCNC(=N)N)NC(=O)[C@H](CCCNC(=N)N)NC(=O)[C@H](C)NC(=O)[C@H](Cc1ccccc1)NC(=O)[C@H](CC(=O)O)NC(=O)[C@@H](NC(=O)[C@H](CCCCN)NC(=O)[C@H](CC(=O)O)NC(=O)[C@H](CCCNC(=N)N)NC(=O)[C@H](CCCNC(=N)N)NC(=O)[C@H](C)NC(=O)[C@@H](N)CCSC)[C@@H](C)O)NC(=O)CCCCCNC(=O)[C@H](CCCNC(=N)N)NC(=O)[C@H](CCCNC(=N)N)NC(=O)[C@H](CCCNC(=N)N)NC(=O)[C@H](CCCNC(=N)N)NC(=O)[C@H](C)NC(=O)[C@H](Cc1ccccc1)NC(=O)[C@H](CC(=O)O)NC(=O)[C@@H](NC(=O)[C@H](CCCCN)NC(=O)[C@H](CC(=O)O)NC(=O)[C@H](CCCNC(=N)N)NC(=O)[C@H](CCCNC(=N)N)NC(=O)[C@H](C)NC(=O)[C@@H](N)CCSC)[C@@H](C)O)C(N)=O)[C@@H](C)O (stereo partly drawn)  tissue distribution (C57BL/6 mouse female, thymus; dose not given, 3 h; reference: total): 0.73% and 0% and 0.61%
COc1ccc([C@@H]2CC(=O)c3c(O)cc(O[C@@H]4O[C@H](CO)[C@@H](O)[C@H](O)[C@H]4O[C@@H]4O[C@@H](C)[C@H](O)[C@@H](O)[C@H]4O)cc3O2)cc1O  faecal recovery (male Sprague-Dawley rats, obese, faeces; oral, 100 mg/kg, 48 h; reference: oral dose): 0.632 ± 0.02%
O=C1NC(=O)c2c1c1cc(F)c[n+]3c1c1c2c2cc(O)ccc2[n]1[Ru-4]312([N]=C=S)[S+]3CC[S+]1CC[S+]2CC3 (stereo not drawn)  remaining activity (Homeodomain-interacting protein kinase 2 (HIPK2, Homo sapiens, UniProt Q9H2X6); enzyme activity; 100 nM, human enzyme, added: 10 µM ATP; reference: untreated): 39%
O=C1NC2(CC2)COc2ncc(F)cc2[C@H]2COCCN2c2ccn3ncc1c3n2  lymphocyte percentage (Sprague-Dawley rat, female, blood; oral, 5 mg/kg/day, 4 weeks, end of treatment, subacute toxicity): 59 ± 17.5%
CC(C)(C)C(=O)OCOP(=O)(OCOC(=O)C(C)(C)C)C1CCCN(O)C1=O (stereo not drawn)  log TGI (ACHN): -5.1 log M
CN(C)[C@H]1C[C@@]23CC[C@@]4(O2)C(=CC[C@]2(C)[C@@H](c5ccc6ccncc6c5)CC[C@H]24)C=C3[C@@H](O)[C@@H]1O  inhibition (Serine/threonine-protein kinase Nek7 (NEK7, Homo sapiens, UniProt Q8TDX7); ATP probe labelling, inhibitor, KiNativ profiling; 1 µM): 9.7%
COc1ccccc1-c1n[nH]c2nc(NC3CCN(C(=O)Cc4ccc(F)cc4F)CC3)ncc12  relative abundance (bead binding, competition bead pull-down, refers to: LINJ.36.2130; Leishmania donovani extract; 10 µM; reference: vehicle): 0.9
C=Cc1c(C)c2cc3nc(c(CC(=O)[O-])c4[n-]c(cc5nc(cc1[n-]2)C(C)=C5CC)c(C)c4C(=O)[O-])C(CCC(=O)[O-])C3C.[Cu+2].[Na+].[Na+].[Na+] (stereo not drawn)  serum ALT (Wistar rat, female; oral, 250 mg/kg daily, 28 days): 35.2 ± 7.83 U/L
CC(C)C[C@@H](NC(=O)[C@@H](CCCNC(=N)N)NC(=O)[C@@H](Cc1c[nH]cn1)NC(=O)[C@@H](Cc1c[nH]c2ccccc12)NC(=O)[C@@H](Cc1c[nH]cn1)NC(=O)[C@@H](Cc1ccccc1)NC(=O)[C@H](NC(=O)[C@@H](Cc1ccc(O)cc1)NC(=O)CNC(=O)CNC(=O)CCOCCOCCOCCNC(=O)CN1CCN(CC(=O)O)CCN(CC(=O)O)CC1)[C@H](C)O)C(=O)N[C@H](CC(N)=O)C(=O)N1CCC[C@@H]1C(=O)O [gallium-68 labelled]  tissue ratio (C57BL/6 mice, male; intravenous, 1.85 MBq, 60 min; reference: tumour over lung): 5.31 ± 0.87
COc1ccccc1-c1n[nH]c2nc(N[C@H]3CC[C@H](NS(=O)(=O)CC(C)C)CC3)ncc12  relative abundance (bead binding, competition bead pull-down, refers to: LINJ.36.0780; Leishmania donovani extract; 10 µM; reference: vehicle): 0.75

For quick reference, copied from above:
C[C@H](O)[C@@H](NC(=O)[C@H]1CCCN1C(=O)[C@@H](CCCCN)NC(=O)[C@@H](CO)NC(=O)[C@@H](Cc1ccc(O)cc1)NC(=O)[C@@H](CC(N)=O)NC(=O)CCOCCOCCOCCNC(=O)CN1CCN(CC(=O)O)CCN(CC(=O)O)CCN(CC(=O)O)CC1)C(=O)N[C@H](CC(=O)O)C(=O)N[C@H](CCCNC(=N)N)C(=O)N[C@H](CCC(N)=O)C(=O)N[C@H](Cc1ccc(O)cc1)C(=O)N[C@H](Cc1c[nH]cn1)C(=O)N[C@H](Cc1ccccc1)C(N)=O [copper-64 labelled]  tissue uptake (C57BL/6J mice, kidney; intravenous, 1.85 MBq, 1.333 h, radiolabelled): 28.5 ± 3.22 %ID/g
